Measurements of several laboratories.
Parts stem from different laboratories: compare values within a part only. Changes are numbered by the printed parent chain.

Series 1
Target: Hepatocyte nuclear factor 3-alpha (Foxa1, Mus musculus, UniProt P35582, residues 1-468, full length assumed)
Technique: EMSA with sequencing
Molecule type: double-stranded DNA, one strand shown
Medium: in vitro
Tested at: 10 and 20 nM
Setting: whole designed probe, mean of two concentrations, ends assumed
Baseline: negative control set to 0
Direction: higher = stronger binding
Constant ends, left off below: GTGAGCGGTGCCCATTGATGGGGAAC … TTTCACTGGGATCGTGGGGAC
Construct (chain): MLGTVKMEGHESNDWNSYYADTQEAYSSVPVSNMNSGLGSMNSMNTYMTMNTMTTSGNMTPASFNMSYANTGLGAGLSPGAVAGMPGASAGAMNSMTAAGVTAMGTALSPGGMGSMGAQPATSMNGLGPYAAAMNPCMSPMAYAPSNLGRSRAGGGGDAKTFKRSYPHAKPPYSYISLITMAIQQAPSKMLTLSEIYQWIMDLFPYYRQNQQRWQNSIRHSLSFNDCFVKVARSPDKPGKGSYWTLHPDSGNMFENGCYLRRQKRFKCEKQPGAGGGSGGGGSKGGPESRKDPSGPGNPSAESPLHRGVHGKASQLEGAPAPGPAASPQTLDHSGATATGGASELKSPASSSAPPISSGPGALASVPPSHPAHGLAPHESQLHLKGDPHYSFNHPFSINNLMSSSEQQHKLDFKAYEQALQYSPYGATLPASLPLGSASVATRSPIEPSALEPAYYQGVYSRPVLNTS
| Sequence | normalised bound fraction [ratio] |
| --- | --- |
| ATCTTCCCCCTCTTCCTTGCCCCACCAGCTCACCTTCCCGGGTCAAAGTAAACAAGTGTTTACTTTGAAGCCGGCATTCGTTAACCCTCTTCACGCGCATACTGCCAAAGTAAACAGATGAATCATGGTCCTTTGGCGACGCCAGGCTCCGGGAGAGCAAAGCACCGTGTCAGGGCCATGATCCGGGGTGGCC | 0.541 |
| GTGCTGAATGCATGTTATTTGCTTTCCTTCAAAAATACGTAACTAGGAAGAGCAGAGTACTATGTAATTTTGCTAATCACATGCTTTACTAAGTAAACAAAGAATACTTTAGGATAGATTTTATTTAAAGTCATCACCTTTCATAATCATTTTATTCTGCATCATAATTTCTTAATCAGGTAATGTAATTATA | 0.564 |
| CAATGCACTTCAAAGGAGAGCAGAATGCATTTCTTGTACAGAATTCCTGGATATGTTTGATCATTAGTTAGGGCAAGTAGTTTGACTTGAGGCTATTTACTCAGCAGGAATAAAAAGTACAGCATTGCTTCAACCAAGAGGAGTGCCCCATACCTTCCCCAAGCAGAATTTAATAATTTGATCTGTCAGAGGA | 0.233 |
| AGGACATAAGCCAGCCCAGATAACAAGCTAAGAAATTTGTTTAGGCAGAAGGGGGAGCTAGAGCAAATCAGTTCACATGCTCTCTCTGTCTCCAGATTACACTGTAGTATTACAGGTGTTAGACGGTAGCAAGTCCTAGAGAAGTGTGTTGTGTAAGTCACTGTCATTCAACATTGTAATCTGCTAGGTAAAA | 0.0391 |
| TTTTTTCTGTACAGGGAAAAATAGTGAATATTTCAAAATTGTGAAACAAAGAGTCTCTGGTTGCATAACTGGCAACTACTCATTAGACAATATGCAAACAAATGAGTGTGTCTGTGTTCCAATAAAACTGTATTTACAAAAGCAGAAGGCCACCCATGTGCCAATGTCCAAAGTTTCTCAACCAACCCCTGGT | 0.377 |
| TACAGACTCACATTCACCTTGCGCCACACTACCTTTACGGTATAGTGAACTCCTTTCAGTCCCTTTCTTTCACAATAGTCTGCATAATCTAAGTAAACAGGAGACTTGTGTCTTTCACTGTTCCTAGACACTTCGCAACTAATATATTGCTTGCATATAGACACTAGATATCTCTGAATAAATCAACAGAAGA | 0.39 |
| ATCTTCCCCCTCTTCCTTGCCCCACCAGCTCACCTTCCCGGGTTGTTTACTTTGAGCAAAGTAAACAAAGCCGGCATTCGTTAACCCTCTTCTGGCGCAAACTGCCAAAGTAAACAGATGAATCATGGTCCTTTGGCGACGCCAGGCTCCGGGAGAGCAAAGCACCGTGTCAGGGCCATGATCCGGGGTGGCC | 0.562 |
| ATCTTCCCCCTCTTCCTTGCCCCACCAGCTCACCTTCCCGGGTTATTTGCAGATAGGAAAATAAATAAAGCCGGCATTCGTTAACCCTCTTCTGGCGCAAACTGCTGTTTGCTCTGGATGAATCATGGTCCTTTGGCGACGCCAGGCTCCGGGAGAGCAAAGCACCGTGTCAGGGGGGGGTCCCCCGCTGATA | 0.328 |

Series 2
Target: CCNE2, cyclin fold, Cln2 fusion (human)
Technique: yeast growth competition, sequencing
Medium: yeast
Setting: weak parent motif
Baseline: not given
Direction: higher = stronger binding
Parent: SAMHD1 docking peptide (human); ASKSRVQLFKDDP; partner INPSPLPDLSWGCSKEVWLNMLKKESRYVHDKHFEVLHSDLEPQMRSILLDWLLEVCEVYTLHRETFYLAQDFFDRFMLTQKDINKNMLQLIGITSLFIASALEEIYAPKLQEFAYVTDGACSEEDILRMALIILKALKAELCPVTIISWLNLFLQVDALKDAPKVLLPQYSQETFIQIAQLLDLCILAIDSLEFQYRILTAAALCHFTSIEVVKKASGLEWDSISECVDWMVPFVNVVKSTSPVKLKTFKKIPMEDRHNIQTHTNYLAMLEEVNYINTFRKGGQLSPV
| Variant | normalised enrichment score |
| --- | --- |
| ASKSKVQLFKDDP [R5K] | 0.251 |
| ASKVRVQLFKDDP [S4V] | 2.02 |
| ASKSRVQLRKDDP [F9R] | 0.429 |
| ASKSRVCLFKDDP [Q7C] | -0.0159 |
| ASKSRMQLFKDDP [V6M] | 0.0731 |
| ASKSRVQQFKDDP [L8Q] | -0.195 |
| ADKSRVQLFKDDP [S2D] | -0.19 |
| ASISRVQLFKDDP [K3I] | 0.395 |

Further values, each from its own experiment
| Molecule | tested on | assay | system | setting | scale | measurement | value |
| --- | --- | --- | --- | --- | --- | --- | --- |
| SNRPC (Homo sapiens, UniProt P09234) | SNRPD3 (Homo sapiens, UniProt P62318) | cross-linking MS | cells | added: BSPNO | – | cross-linked residues | K52 to K78 |
| DHIPIINTL | HLA class I histocompatibility antigen, A alpha chain, allele A*80:01 (Homo sapiens, UniProt P04439) | peptide-MHC binding | peptide | – | direction not given | z-score of log IC50 | 0.38 |

Some of these lines once more (series 2):
| Variant | normalised enrichment score |
| --- | --- |
| ADKSRVQLFKDDP [S2D] | -0.19 |
| ASISRVQLFKDDP [K3I] | 0.395 |
| ASKVRVQLFKDDP [S4V] | 2.02 |
